Assay results gathered from unrelated publications.
Every numbered part comes from another study and shows a few of its results, in no order.

Set 1
Target: RNA binding protein fox-1 homolog 2, RRM domain, GST-SBP tag (RBFOX2, Homo sapiens, UniProt O43251-10, residues 100-194)
Technique: RNA Bind-n-Seq
Molecule type: RNA
Sample: in vitro
Concentration: 365 nM
Notes: natural RNA segment, single round, ends assumed
Relative to: no-protein control
Reading: higher = stronger binding
Constant ends, left off below: GGGAGUUCUACAGUCCGACGAUC … UGGAAUUCUCGGGUGCCAA
Construct (chain): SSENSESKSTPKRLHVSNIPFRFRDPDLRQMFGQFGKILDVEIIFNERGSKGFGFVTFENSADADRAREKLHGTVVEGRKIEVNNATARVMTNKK
| Sequence | RBNS enrichment (R) |
| --- | --- |
| AUAGAGGUUUGGACAGACCCGGCAAGUGGUGACUACCGGUAAUUGUAGGAACACGCCUGUCACCUAACAUCCAAGCACGCUCACAAACCUGCAGGCAUAUCAUUGGCGUA | 0.936 |
| AACUCGACAGAAGAGUGAACACCACUUUCUAAAGAGGCUGCCUGCACCCCCUCCCUUUCCCUUAACUCUACUUUUACAUCCCCAAACCACCUUUGUCAUCAGCUUUUCCU | 1.09 |
| AAGAUGUAAUUCACAAAUAGUUUAGCUCCCUAGCGCUCAGUUGUAGAAUAGAAAAUAGAACAUUAUUCAAGUUAAUUGAAAGGUGAGGUUUUUAUACCCCCACUAAUGCU | 0.627 |
| CCUGAGAAACUUGUAACCUAUGUGCCUCAAUAUAUUCCAUAGAAAGUAGGUCCCCCUGCCUUCUCCCACUCCUCACACUCUUCUACAGGGAUAGGCUUUUGCAAAUAUAU | 0.606 |
| GUGCUAUAGGUGACCAUCUGGUACAUUGAGGGGACCUGUUUGCCUCCUCCACUCUAUAAGCAGUCAUCUUGGGAGACCGGGAGGAGAAGGUGGUGGGCUAGUCCUGUGUC | 0.576 |
| UGUAUUGUCUCCGGCCACACUGGCAAGAUCAUCAUUAGAAAUGGAAAUGACAUUUGAAAGCCAUUAGACUUCUAGGUGAUGCAUCUAAGAAAGAUUAAUCACACAAUAGA | 0.272 |
| AAGAACAACAGCAAGUCCGGAUUAAGGAAGUAACAUGCUUCUAGAAUGUUCCAAGACACUUGAGAGAAAAGACCUAGGAAAGAGAAGGUUCCUGGUGAGCCUGUGGUCUA | 1.05 |
| UAAGAAAGUAAACACUUUUUGAGCACCAAAUAUAUAUAGGGCAUUGUUCUGGUGGGUGUGUCACGCUCCCAGAAGACUGAAUUCAUGGUAGGAUCACUCGCAAGGCCUUG | 0.305 |
| UUCUGAGCUCCCCAUCACCAUGGGAGGUGGGGCCUCAAUCUAAGGCCUUCCCUGUCAGAAGGGGGUUGUGGCAAAAGCCACAUUACAAGCUGCCAUCCCCUCCCCGUUUC | 0.202 |
| UCUCAACUUUGCCCGCUCACCAUGUCCCUUGCCCCCAUGUAGCCCAUUUCCCAGGUUAUGCUCUUUUCUUUCUCAGGGUCCUCUUUGGUGGGCAGCCACUCCCCGAGAUG | 1.09 |
| GAGAAAUAGGUACCAGUCCUCAGGACGAGCCAGGAUCCCUCAGGGGAGAGGGCAGACGAUGCCUGGGAUCCAGCUGACAGGAGGGUCCAGCCCGCACUACAGAGGCUGGG | 0.468 |
| GAAUUUUAAUAAAACAGAAGGAAACUAAUGGACCUUCCAGGAUUUAUUGUGGACGGAUGUGGAUAUAUUCUGUACAGGAACAACACAUAUGGAAGUGGACUGAAGCCUAU | 0.519 |

Set 2
Target: Ras GTPase-activating protein-binding protein 1, full length (G3BP1, Homo sapiens, UniProt Q13283)
Sequence of UniProt Q13283 (whole entry, looked up): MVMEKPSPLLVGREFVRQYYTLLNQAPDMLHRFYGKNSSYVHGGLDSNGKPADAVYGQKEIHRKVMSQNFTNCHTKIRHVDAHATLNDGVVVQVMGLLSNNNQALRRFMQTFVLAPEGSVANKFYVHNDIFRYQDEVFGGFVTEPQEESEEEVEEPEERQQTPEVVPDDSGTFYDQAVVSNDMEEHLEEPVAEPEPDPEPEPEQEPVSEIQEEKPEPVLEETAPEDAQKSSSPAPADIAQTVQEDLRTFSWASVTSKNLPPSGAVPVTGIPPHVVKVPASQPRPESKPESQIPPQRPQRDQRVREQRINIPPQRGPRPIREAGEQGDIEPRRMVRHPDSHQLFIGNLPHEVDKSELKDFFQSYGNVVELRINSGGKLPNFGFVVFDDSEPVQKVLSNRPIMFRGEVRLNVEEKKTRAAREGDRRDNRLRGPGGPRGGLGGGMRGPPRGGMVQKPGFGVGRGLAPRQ
Technique: RNA Bind-n-Seq
Molecule type: RNA
Sample: in vitro
Concentration: 200 nM
Notes: whole 134-nt RNA, ends assumed
Together with: 150 mM LiCl
Relative to: input library
Reading: higher = stronger binding
All molecules: 7-deaza-guanosine replaces G
Constant ends, left off below: GGGAGUUCUACAGUCCGACGAUC … UGGAAUUCUCGGGUGUCAAGG
| Sequence | log2 enrichment |
| --- | --- |
| UGGGGAGACUACGAUGACAGCGCCUUCAUGGAGCCCAGGUACCACGUCCGUGGAGAAGAUCUGGACAAGCUCCACAGAGCUGCCUGGUGG | -1.86 |
| UCCUGUGCUACACAUCGUAUGUACCGAAUCGGGGUGGGGAAAAAAAGGGGUUUUUGGGGAAAGUAUUAUGUUACGCCGUUCGGAUCUGCA | 0.304 |
| UCCUGUGCUACACAUCGUAUGUACCGAAUCGGGGAAAAAAGGAAAAAAGGGGAAAAAAGGAAAGUAUUAUGUUACGCCGUUCGGAUCUGC | -0.37 |
| UGAGAGGUGGAUUUUGUUUAUUUUUUUAGCUCAUUUCCAGGGGUGGGAAUUUUUUUUUAAUAUGUGUCAUGAAUAAAGUUGUUUUUGAAA | -0.135 |
| GCAGGAAGUAAAAACAAAAGGAAAUGCUUCGGAUAGUGGCAGGGGUGGGGGUUGCUAAGGAAAGGGUGGGAUGGGAGUGGGUAAAGAGUU | 0.214 |
| CAAGUCCUGUGCUACACAUCGUAUGUACCGAAUCGGCCCCGGCCCCGGGGCCCCGGAAAGUAUUAUGUUACGCCGUUCGGAUCUGCACUU | -2.22 |
| UAUGAGGAUGAGUUGGUGCCCCUUUUUGAGAAGGCCGGACCCAUUUGGGAUCUACGUCUUAUGAUGGAUCCACUGUCCGGUCAGAAUAGA | 0.989 |
| UGGCCCUGGUGGCAUGCGGGGAGGAAGAGGUGGCCUCAUGGAUCGUGGUGGUCCCGGUGGAAUGCUCAGAGGUGGCCGUGGUGGAGACAG | -0.0511 |
| CUGUGCUACACAUCGUAUGUACCGAAUCGGGGUUUUUUGGGUUUUUUGGGGUUUUUUGGGGAAAGUAUUAUGUUACGCCGUUCGGAUCUG | 1.36 |
| GCAGGAAGUAAAAACAAAUGGAAAUGCUUCGGAUAGUGGCAGGGGUGGGGGUUGCUAAGGAAAGGGUGGGAUGGGUGUGGGUAAAGAGUU | 0.428 |
| UUUUCUCACGAUGCACCUCCCCCUGGCACUAAGAAAAAGCACUUAUCCAUUGAGCAGCUGAAUGCUCGUCGCAGGAAAGUAUGGCUCAGC | 0.0858 |

Set 3
Target: Interferon regulatory factor 7, full length, phosphomimetic (IRF7, Homo sapiens, UniProt Q92985, residues 1-503, S101K/S471D/S472D/S475D/S476D/S477D/S483D/S484D/S487D)
Sequence of UniProt Q92985 (whole entry, unmodified, looked up): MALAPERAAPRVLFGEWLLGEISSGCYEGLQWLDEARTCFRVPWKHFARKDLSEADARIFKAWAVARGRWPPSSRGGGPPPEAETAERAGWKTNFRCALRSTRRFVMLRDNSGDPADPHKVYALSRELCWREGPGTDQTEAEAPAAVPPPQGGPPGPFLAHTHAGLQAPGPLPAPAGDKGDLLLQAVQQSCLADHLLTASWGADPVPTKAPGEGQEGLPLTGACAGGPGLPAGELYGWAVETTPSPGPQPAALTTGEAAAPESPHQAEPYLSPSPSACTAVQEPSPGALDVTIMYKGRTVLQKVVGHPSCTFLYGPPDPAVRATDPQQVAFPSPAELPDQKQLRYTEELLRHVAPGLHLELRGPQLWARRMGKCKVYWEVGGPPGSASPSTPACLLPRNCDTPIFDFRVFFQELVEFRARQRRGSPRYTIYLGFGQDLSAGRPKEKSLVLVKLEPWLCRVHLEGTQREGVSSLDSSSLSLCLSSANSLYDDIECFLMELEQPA
Technique: protein-binding microarray
Molecule type: double-stranded DNA, one strand shown
Sample: in vitro
Concentration: 250 nM
Notes: 60-bp whole probe
Together with: salmon DNA 0.4 mg/ml
Relative to: random background probes
Reading: higher = stronger binding
Constant ends, left off below: GCCTAGCAC … GTCTTGATTCGCTTGACGCTGCTG
| Sequence | log fluorescence |
| --- | --- |
| GACGATATCGGGTATAGAGACGTGCTA | -0.327 z-score |
| GGCGGACTGGGTTTCGGGACGTGCTAG | 1.57 z-score |
| TTGCCAATGCTTCTGGTCTTGTGCTAG | -0.486 z-score |
| GACGGTTTCGGAATGGGGACGTGCTAG | 10.1 z-score |
| TTGAATCTCCCATTATATTTGTGCTAG | 0.295 z-score |
| GACAATATCAGTCTCGAGACGTGCTAG | 0.602 z-score |
| CTCTAAGACACAAGATCAGAGTGCTAG | -0.0389 z-score |
| AACGGTATCGACTATCGGGACGTGCTA | 0.102 z-score |
| TCCATTTTCTAAATGCCCTGGTGCTAG | 1.76 z-score |
| TGTGTCCTGGCTTTGACTCTGTGCTAG | -0.244 z-score |
| GACGGTCTCCTTCTCCTGCCGTGCTAG | -0.0583 z-score |
| TTCCATTTCTGTTTTTGCTTGTGCTAG | 1.97 z-score |
| GACGGACTGTTTTTCCTGACGTGCTAG | 0.252 z-score |
| GACGGTCGCGGTTTCGGGACGTGCTAG | 4.56 z-score |
| GGACGAGCGACGGTGACACTGTGCTAG | -0.492 z-score |
| TCATTTTCGTTTTTATTATTGTGCTAG | 9.52 z-score |
| GACGGTTTCCTACTGCTCACGTGCTAG | 1.4 z-score |
| TTAGGTTTCGACTATCGGTTTGTGCTA | 5.56 z-score |
| TTAGGTTTCGGGACTGGGTTCGTGCTA | 3.35 z-score |
| TTAGAACTGGGGAGTGGATTAGTGCTA | -0.527 z-score |
| GACGGACAGGGACTGGGGACGTGCTAG | -0.672 z-score |
| GACGGTCTCGGTATCGAGACGTGCTAG | 1.89 z-score |

Set 4
Target: Prothrombin, mature alpha-thrombin (F2, Homo sapiens, UniProt P00734)
Technique: aptamer microarray, sandwich
Molecule type: DNA with 2'F-ANA
Sample: in vitro
Concentration: 200 nM
Notes: whole 15-mer aptamer, many near background
Together with: Cy3 exosite-II aptamer, 400 nM
Reading: higher = stronger binding
Sequence: GGTTGGTGTGGTTGG
| Modification | mean fluorescence intensity [a.u.] |
| --- | --- |
| 2'F-ANA at 4 9 10 13 14 | 64.5 |
| 2'F-ANA at 1 2 3 15 | 264 |
| 2'F-ANA at 1 2 4 5 7 9 10 11 12 13 | 71.3 |
| 2'F-ANA at 1 2 3 4 6 7 11 13 | 134 |
| 2'F-ANA at 1 2 3 4 5 6 8 15 | 62.9 |
| 2'F-ANA at 1 2 3 4 13 14 | 64.1 |
| 2'F-ANA at 2 4 5 7 8 9 11 12 14 | 45.9 |
| 2'F-ANA at 1 3 4 6 7 8 9 11 12 13 14 | 77.8 |
| 2'F-ANA at 1 2 3 9 11 13 14 | 69.7 |
| 2'F-ANA at 2 4 6 7 9 11 13 15 | 134 |
| 2'F-ANA at 3 4 8 9 11 13 15 | 531 |
| 2'F-ANA at 1 3 4 6 7 9 10 14 15 | 48.3 |
| 2'F-ANA at 1 2 4 5 6 7 8 9 12 14 | 49.6 |
| 2'F-ANA at 4 5 9 11 13 | 183 |
| 2'F-ANA at 2 3 4 7 9 11 12 13 14 15 | 244 |
| 2'F-ANA at 1 2 6 9 10 11 | 53.5 |
| 2'F-ANA at 2 3 4 5 8 9 10 11 12 14 15 | 52.8 |
| 2'F-ANA at 2 3 6 7 8 9 10 13 15 | 290 |
| 2'F-ANA at 3 5 9 10 13 14 | 51.7 |
| 2'F-ANA at 1 2 3 5 7 8 9 11 13 | 57.3 |

Repeated from above (set 2):
| Sequence | log2 enrichment |
| --- | --- |
| UAUGAGGAUGAGUUGGUGCCCCUUUUUGAGAAGGCCGGACCCAUUUGGGAUCUACGUCUUAUGAUGGAUCCACUGUCCGGUCAGAAUAGA | 0.989 |
| UGGCCCUGGUGGCAUGCGGGGAGGAAGAGGUGGCCUCAUGGAUCGUGGUGGUCCCGGUGGAAUGCUCAGAGGUGGCCGUGGUGGAGACAG | -0.0511 |
| CAAGUCCUGUGCUACACAUCGUAUGUACCGAAUCGGCCCCGGCCCCGGGGCCCCGGAAAGUAUUAUGUUACGCCGUUCGGAUCUGCACUU | -2.22 |
| UGGGGAGACUACGAUGACAGCGCCUUCAUGGAGCCCAGGUACCACGUCCGUGGAGAAGAUCUGGACAAGCUCCACAGAGCUGCCUGGUGG | -1.86 |
| UCCUGUGCUACACAUCGUAUGUACCGAAUCGGGGAAAAAAGGAAAAAAGGGGAAAAAAGGAAAGUAUUAUGUUACGCCGUUCGGAUCUGC | -0.37 |
| GCAGGAAGUAAAAACAAAUGGAAAUGCUUCGGAUAGUGGCAGGGGUGGGGGUUGCUAAGGAAAGGGUGGGAUGGGUGUGGGUAAAGAGUU | 0.428 |
| UGAGAGGUGGAUUUUGUUUAUUUUUUUAGCUCAUUUCCAGGGGUGGGAAUUUUUUUUUAAUAUGUGUCAUGAAUAAAGUUGUUUUUGAAA | -0.135 |
| CUGUGCUACACAUCGUAUGUACCGAAUCGGGGUUUUUUGGGUUUUUUGGGGUUUUUUGGGGAAAGUAUUAUGUUACGCCGUUCGGAUCUG | 1.36 |
| GCAGGAAGUAAAAACAAAAGGAAAUGCUUCGGAUAGUGGCAGGGGUGGGGGUUGCUAAGGAAAGGGUGGGAUGGGAGUGGGUAAAGAGUU | 0.214 |
